Published values of several laboratories.
Cell line: THP-1

CCOC(=O)c1c(C(=O)OC)cn(CC(c2cn(C)c3ccccc23)c2cn(C)c3ccccc23)c1C  CC50 (cell growth or viability, MTS; 72 h): > 200 µM
CC/C(=C\c1ccc(OCC(=O)NC(C(=O)N2CCSCC2)c2ccccc2)cc1)[N+](=O)[O-] (stereo not drawn)  CC50 (cell growth or viability, MTT; 72 h, pH 7.4): 2.98 µM
CC(=O)[O-].CN1CCN2CCN(CC1)CCN(Cc1ccccc1)CC2.F[P-](F)(F)(F)(F)F.[Cu+2]  IC90 (cytotoxicity): > 20 µM
CC(C)C[C@H](NC(=O)[C@H](C)NC(=O)[C@H](CCCCN)NC(=O)[C@H](C)NC(=O)[C@H](CCCNC(=N)N)NC(=O)[C@H](C)NC(=O)[C@H](CCC(N)=O)NC(=O)[C@H](CCCNC(=N)N)NC(=O)[C@H](C)NC(=O)[C@H](C)NC(=O)[C@H](C)NC(=O)[C@H](CCCNC(=N)N)NC(=O)[C@H](C)NC(=O)[C@H](Cc1ccc(O)cc1)NC(=O)CCNC(=S)Nc1ccc2c(c1)C(=O)OC21c2ccc(O)cc2Oc2cc(O)ccc21)C(=O)N[C@@H](C)C(=O)N[C@@H](CCCNC(=N)N)C(=O)N[C@@H](CCC(N)=O)C(=O)N[C@@H](CC(C)C)C(=O)NCC(=O)N[C@H](C(=O)N[C@@H](C)C(=O)N[C@@H](C)C(N)=O)C(C)C  uptake (flow cytometry; concentration not given, 1 h, with: 50 µM EIPA): increased
F[P-](F)(F)(F)(F)F.F[P-](F)(F)(F)(F)F.[Cu+2].c1ccc(CN2CCCNCCN(Cc3ccccc3)CCCNCC2)cc1  IC50 (cell growth or viability): > 15 µM
CCOC(=O)c1c(C#N)c(-c2c[nH]c3cccc(OCc4ccccc4)c23)n(NC(=O)OC(C)(C)C)c1C  CC50 (cell growth or viability): 43.1 µM
CCCCCc1cn(CCCCCCCCCCCOP(=O)([O-])OCC[N+](C)(C)C)nn1  CC50 (cell growth or viability, flow cytometry; 24 h): > 50 µM
COc1ccc(NC(=O)N2CCCN3CCC(c4ccc(C#CC5CCCCC5)cc4)C3C2)cc1 (stereo not drawn)  CC50 (cell growth or viability, ATP luminescence; 72 h): 7.94 µM
CC(=O)[O-].F[P-](F)(F)(F)(F)F.[Cu+2].c1ccc(CN2CCN3CCN(CC2)CCN(Cc2ccccc2)CC3)cc1  IC50 (cell growth or viability): > 20 µM
COc1ccc(NC(=O)N2CCCN3CCC(c4ccc(C#CC5CCCC5)cc4)C3C2)cc1 (stereo not drawn)  CC50 (cell growth or viability, ATP luminescence; 72 h): 8.02 µM
CC(=O)[O-].F[P-](F)(F)(F)(F)F.[Co+2].c1ccc(CN2CCCN3CCN(CCCN(Cc4ccccc4)CC3)CC2)cc1  IC50 (cell growth or viability): > 15 µM
COc1ccc(Oc2ccc([C@@H](C)N(C)c3ncc4c(N)nc(N)nc4n3)cc2)cc1  CC50 (cell viability; 72 h, extrapolated, serum 10%): 36.6 µM
CC/C(=C\c1ccc(OCC(=O)NC(C(=O)N2CCOCC2)c2ccccc2)cc1)[N+](=O)[O-] (stereo not drawn)  CC50 (cell growth or viability, MTT; 72 h, pH 7.4): 46.8 µM
[Cl-].[Cl-].[Mn+2].c1ccc(CN2CCNCCN(Cc3ccccc3)CCNCC2)cc1  cytotoxicity (concentration not given): not toxic
Cc1ccc(NC(=O)N2CCCN3CCC(c4ccc(C#CC5(O)CCCCC5)cc4)C3C2)cc1 (stereo not drawn)  CC50 (cell growth or viability, ATP luminescence; 72 h): 13.8 µM

A few entries again:
COc1ccc(NC(=O)N2CCCN3CCC(c4ccc(C#CC5CCCC5)cc4)C3C2)cc1 (stereo not drawn)  CC50 (cell growth or viability, ATP luminescence; 72 h): 8.02 µM
CC(=O)[O-].F[P-](F)(F)(F)(F)F.[Co+2].c1ccc(CN2CCCN3CCN(CCCN(Cc4ccccc4)CC3)CC2)cc1  IC50 (cell growth or viability): > 15 µM
